# Results from different studies.
# Lines come from different studies, so protocols differ. Several values in a cell are separate wells, animals, samples, runs or records. Numbers after ± are the reported error.
SMILES,tested on,test,system,setting,scale,endpoint,result
CC(C)C[C@H](NC(=O)[C@H](CC(N)=O)NC(=O)[C@H](CCCNC(=N)N)NC(=O)[C@@H](CC(C)C)NC(=O)[C@H](Cc1ccc(-c2ccccc2)cc1)NC(=O)[C@H](CC(=O)O)NC(=O)[C@H](CCCNC(=N)N)NC(=O)[C@@H](CC(C)C)NC(=O)[C@H](CCCCN)NC(=O)[C@H](CCC(N)=O)NC(=O)[C@@H](NC(=O)[C@@H](CC(C)C)NC(=O)[C@H](CCCCN)NC(=O)[C@H](CCCNC(=N)N)NC(=O)[C@H](Cc1ccc(-c2ccccc2)cc1)NC(=O)CN)C(C)C)C(=O)N[C@H](C(N)=O)C(C)C,human erythrocytes,hemolysis,,"1 h, 37 °C",baseline: Triton X-100,HC50,100 µM
C=C1C(=O)OC2C1CCC(C)(O)C13C=CC(C)(C21)C1(C3)C(=O)OC2C3=C(C)CC(O)C3C(=C)CC(OC(=O)C(C)=CC)C21 (stereo not drawn),AML12 mouse hepatocytes,MTT,,"24 h, 10% FBS",,maximum safe concentration,10 µM
COc1cc(N2CCN(C(=O)CCOCCNC(=O)[C@@H]3CCCN3)CC2)ccc1Nc1ncc(Cl)c(Nc2ccccc2P(C)(C)=O)n1,NCI-H3122,CCK-8,,"2.5 µM, 48 h",,viability,22% and 26% and 23%
C[N+](C)(CI)CCO,HK-2,"cell growth or viability, ATP luminescence",,24 h,,IC50,> 150 µM
C=C1C(=O)OC2C1CCC(C)(O)C13C=CC(C)(C21)C1(C3)C(=O)OC2C3C(=C(C)CC(OC(=O)C=C(C)C)C21)CC(O)C3(C)Cl (stereo not drawn),AML12 mouse hepatocytes,MTT,,"24 h, 10% FBS",,maximum safe concentration,10 µM
CN1CCCNC(=O)c2cccc(c2)C(=O)NCCCN(C)CCCNc2cccc3c2C(=O)c2cccc(c2C3=O)NCCC1,mouse bone marrow cells,CCK-8,,"0.5 µM, 48 h",baseline: untreated,viability,91.3%
CC1OC2OC3C4=C(OC3(C)C12O)C(=O)c1c(O)cccc1C4=O (stereo not drawn),HFF,"cell growth or viability, MTT",,48 h,,CC50,12 µM
NCCNc1nnnc2c1sc1nc(N3CCOCC3)c3c(c12)CCCC3,cryopreserved human hepatocytes,UHPLC-MS peak area,,"1 µM, 120 min",,percentage of drug-related material,10%
C=C1C(=O)OC2C1CCC(C)(O)C13C=CC(C)(C21)C1(C3)C(=O)OC2C3C(C)=CCC3(O)C(C)=CC(OC(C)=O)C21 (stereo not drawn),AML12 mouse hepatocytes,MTT,,"24 h, 10% FBS",,maximum safe concentration,10 µM
COc1cc(N2CCN(C(=O)C3CCCN3)CC2)ccc1Nc1ncc(Cl)c(Nc2ccccc2P(C)(C)=O)n1 (stereo not drawn),NCI-H3122,"cell growth or viability, CCK-8",,"0.5 µM, 48 h",,viability,11% and 12%
O=C1NC2(CC2)COc2ncc(F)cc2[C@H]2COCCN2c2ccn3ncc1c3n2,CHL,chromosomal aberration test,,"300 µg/mL, 4 h, with rat liver S9",baseline: solvent control,relative population doubling,55.1%
COC1C(c2ccc(Cl)c(Cc3ccc(OC4CCOC4)cc3)c2)OC(CO)C(O)C1O (stereo not drawn),H9c2,CCK-8,,"0.1 µM, with: glucose deprivation",baseline: control,viability,49.6 ± 5.48%
CCOC(=O)c1c(C(=O)OC)cn(CC(c2cn(C)c3ccccc23)c2cn(C)c3ccccc23)c1C,DH82,"cell growth or viability, MTS",,24 h,,CC50,> 20 µM
CC[C@@H]([C@H](C)O)n1ncn(-c2ccc(N3CCN(c4ccc(OC[C@@H]5CO[C@@](Cn6cncn6)(c6ccc(F)cc6F)C5)cc4)CC3)cc2)c1=O,Trypanosoma cruzi,"reporter mRNA translation, inhibitor, refers to: Renilla luciferase mRNA",cell-free extract,concentration not given,baseline: positive over negative control,translation activity,102% and 150%
COc1ccc(Cc2cc([C@@H]3O[C@H](CO)[C@@H](O)[C@H](O)[C@H]3O)ccc2Cl)cc1,H9c2,CCK-8,,"0.1 µM, with: glucose deprivation",baseline: control,viability,41.3 ± 1.09%
C=C1C(=O)OC2C1CCC(C)(O)C13C=CC(C)(C21)C1(C3)C(=O)OC2C3C(=C(C)CC(OC(C)=O)C21)CC(O)C3(C)Cl (stereo not drawn),AML12 mouse hepatocytes,MTT,,"24 h, 10% FBS",,maximum safe concentration,20 µM
O=S(=O)(Nc1ccc(CO)cc1)c1ccc(Cl)c(Cl)c1,cryopreserved human hepatocytes,pan-CYP inhibition,,"1 µM, with: 1 mM 1-aminobenzotriazole and 15 µM tienilic acid",,metabolism inhibited by ABT and TA,24%
C=C1C(=O)OC2C1CCC(C)(O)C13C=CC(C)(C21)C1(C3)C(=O)OC2C3C(C)C(=O)CC3C(=C)CC(OC(C)=O)C21 (stereo not drawn),AML12 mouse hepatocytes,MTT,,"24 h, 10% FBS",,maximum safe concentration,10 µM
CCN(Cc1ccc(C#CCCO)cc1)CC1CCCN(CCc2cccc(F)c2)C1 (stereo not drawn),Trypanosoma cruzi,"reporter mRNA translation, inhibitor, refers to: Renilla luciferase mRNA",cell-free extract,"concentration not given, test 2",baseline: positive over negative control,translation activity,104% and 102%
C=C1C(=O)OC2C1CCC(C)(O)C13C=CC(C)(C21)C1(C3)C(=O)OC2C3C(C)=CCC3C(C)(O)CCC21 (stereo not drawn),AML12 mouse hepatocytes,MTT,,"24 h, 10% FBS",,maximum safe concentration,40 µM
OC[C@H]1O[C@@H](c2ccc(Cl)c(Cc3ccc(O)cc3)c2)[C@H](O)[C@@H](O)[C@@H]1O,H9c2,CCK-8,,"0.1 µM, with: glucose deprivation",baseline: control,viability,51.2 ± 1.48%
O=C(O)/C=C\C(=O)NCCCOCCOCCOCCCNC(=O)/C=C\C(=O)O,HFDPC,MTT,,"up to 1000 ppm, 24 h",,cytotoxicity,not toxic
C[S@@](=N)(=O)c1ccc(C(=O)Nc2cc(-c3ccc(F)cc3)ccc2N)cc1,KP mouse cells,RNA-seq,,"1 µM, 7 days",,transcriptome change,no effect
C=C1C(=O)OC2C1CCC(C)(O)C13C=CC(C)(C21)C1(C3)C(=O)OC2C3C(C)=CC(O)C3C(=C)CC(OC(=O)C(C)=CC)C21 (stereo not drawn),AML12 mouse hepatocytes,MTT,,"24 h, 10% FBS",,maximum safe concentration,5 µM
CCCCn1c2ccc([N+](=O)[O-])cc2c(=O)n1Cc1ccccc1,BALB/c mouse peritoneal macrophages,"cytotoxicity, resazurin",,"48 h, 10% fetal bovine serum",,CC50,5.07 µM
C[C@H]1O[C@@H]2C3=C(O[C@]2(C)[C@@]1(O)C=O)C(=O)c1c(O)cccc1C3=O,HFF,"cell growth or viability, MTT",,48 h,,CC50,23 µM
COCCN(C)CC(=O)NC(Cc1ccc(-c2ccccc2)cc1)B(O)O (stereo not drawn),primary human hepatocytes,cytotoxicity,,96 h,,IC50,> 10 µM
C[C@H](NP(=O)(O)OC[C@H]1O[C@@](C#N)(c2ccc3c(N)ncnn23)[C@H](O)[C@@H]1O)C(=O)O,primary human hepatocytes,"spare respiratory capacity, Seahorse OCR",,4 h,,CC50,> 100 µM
C=C1C(=O)OC2C1CCC(C)(O)C13C=CC(C)(C21)C1(C3)C(=O)OC2C3C(C)=CCC3C(=C)CC(OC(C)=O)C21 (stereo not drawn),AML12 mouse hepatocytes,MTT,,"24 h, 10% FBS",,maximum safe concentration,10 µM
Cn1c2ccc([N+](=O)[O-])cc2c(=O)n1Cc1ccccc1,BALB/c mouse peritoneal macrophages,"cytotoxicity, resazurin",,"48 h, 10% fetal bovine serum",,CC50,4.1 µM

# For quick reference, copied from above:
SMILES,tested on,test,system,setting,scale,endpoint,result
C=C1C(=O)OC2C1CCC(C)(O)C13C=CC(C)(C21)C1(C3)C(=O)OC2C3C(C)=CCC3(O)C(C)=CC(OC(C)=O)C21 (stereo not drawn),AML12 mouse hepatocytes,MTT,,"24 h, 10% FBS",,maximum safe concentration,10 µM
CC1OC2OC3C4=C(OC3(C)C12O)C(=O)c1c(O)cccc1C4=O (stereo not drawn),HFF,"cell growth or viability, MTT",,48 h,,CC50,12 µM
